Measured values collected from several papers.
Lines come from different studies, so protocols differ. Several values in a cell are separate wells, animals, samples, runs or records. Numbers after ± are the reported error.

Compound	cell line	assay	setting	how to read	endpoint	value
CCN(C(=O)c1cc(F)ccc1Oc1nncnc1N1CCC2(C1)CN([C@H](CCCN(C)CCOC)C(C)C)C2)C(C)C	EJ-28	cell growth or viability	72 h	–	GI50	> 10000 nM
O=C(Nc1ccc(Sc2ccc3c(/C=C/c4ccccn4)n[nH]c3c2)cc1)C1CCCN1 (stereo not shown)	BaF3	cell growth or viability, CCK-8	–	–	GI50	2990 nM
CN1CCCNC(=O)c2cccc(c2)C(=O)NCCCN(C)CCCNc2cccc3c2C(=O)c2cccc(c2C3=O)NCCC1	SAS	RNA-Seq, item: YTHDC1 mRNA	1 µM, 6 h	reference: untreated cells	log2 fold change	0.571
C=CCc1c(O)cc2c(c1O)C(=O)CC(c1ccc(O)cc1)O2 (stereo not shown)	HeLa	cell growth or viability, MTT	3.125 µM, 48 h	–	inhibition	2.17%
C=CC(=O)N1[C@H](c2ccc3c(c2)OCO3)c2[nH]c3ccccc3c2C[C@H]1C(=O)N1CCOCC1	22Rv1	ATAC-seq	concentration not given, log2FC -1	–	decreased accessible sites	960 sites
O=S(=O)(N[C@H]1CCO[C@@H](C2c3ccc(F)cc3CCc3cc(F)ccc32)C1)c1ccc(OC(F)(F)F)cc1	D425	immunoblot, item: AKT	concentration not given	–	phosphorylation level	decreased
C=CC(=O)N1[C@H](c2ccc3c(c2)OCO3)c2[nH]c3ccccc3c2C[C@@H]1C(=O)NC	rat DRG neurons	–	1.111 µM, 48 h, with: vincristine 40 nM	–	mean neuron degeneration	25.5%
CC(=O)N[C@@H](CC(=O)O)C(=O)N[C@@H](CCC(=O)O)C(=O)N[C@@H](CC(C)C)C(=O)N[C@@H](CC(=O)O)C(=O)COC(=O)c1c(C)cccc1C	THP-1 cells, LPS-primed	pyroptosis, LDH release	25 µM, LPS 1 µg/mL, 4 h, with: nigericin 5 µM, 2 h	–	cell lysis	73.1% and 66.6%
CC12CCCC(NS(=O)(=O)c3ccc(O)cc3)(C1)C1CC(C)(C)C1CC2 (stereo not shown)	HT-29	cell growth or viability, CCK-8	10 µM	–	inhibition	< 50%
CC(=O)N[C@@H](CC(=O)O)C(=O)N[C@@H](CO)C(=O)N[C@H](C(=O)N[C@@H](CC(=O)O)C(=O)COC(=O)c1c(C)cccc1C)C(C)C	THP-1 cells, LPS-primed	pyroptosis, LDH release	25 µM, LPS 1 µg/mL, 4 h, with: nigericin 5 µM, 2 h	–	cell lysis	53% and 63.2%
CCC(=CCc1c(O)cc2c(c1O)C(=O)CC(c1cccc(O)c1)O2)CC (stereo not shown)	HeLa	cell growth or viability, MTT	0.781 µM, 48 h	–	inhibition	2.32%
N#C[C@@H]1CCCN1C(=O)CNC(=O)c1ccnc2ccc(OCCCN3CCN(C(=O)CCc4ccc5c(c4)CN4CCN(Cc6cc(CCC(=O)O)ccc6O)CC(=O)[O][Al-]([18F])([O]C(=O)C4)[O]5)CC3)cc12 (stereo partly shown)	HT1080 cells expressing human FAP	–	15 min, 37 °C	–	internalized fraction	66.9 ± 0.7%
Cc1c(Cl)cccc1Nc1ccccc1C(=O)[Se]CC(=O)Nc1cccc(C(F)(F)F)c1	NCI60 NSCLC subpanel mean	cell growth	–	–	TGI	3.11 µM
CNS(=O)(=O)Nc1nccc(Cc2c(C)c3ccc(Oc4ncccc4F)cc3oc2=O)c1F	NUGC-3	cell viability	7 days	–	IC50	24.3 nM
Cc1ccc2oc(=O)cc(Cn3ccnc3)c2c1	COS-7 (untransfected)	–	500 µM, unit not given	reference: 3 µM ionomycin	calcium mobilisation signal	3.65 ± 3.32
C[C@@H]1CC[C@@H]([C@@](O)(COCc2ccccc2)Cn2cnc3ccccc32)[C@H](OCc2ccccc2)C1	A2780	cell growth or viability, MTT	30 µM, 72 h	–	inhibition	90.4%
Cc1n[nH]c(C)c1CCCOc1cc(C(=O)NCCCCC(NC(=O)CN2CCN(CC(=O)[O-])CCN(CC(=O)[O-])CCN(CC(=O)[O-])CC2)C(=O)NCC2CCC(C(=O)NC(Cc3ccc4ccccc4c3)C(=O)NCCCCC(NC(=O)NC(CCC(=O)O)C(=O)O)C(=O)O)CC2)ccc1F.[68Ga+3] (stereo not shown)	22Rv1	–	2 h	reference: added dose	maximum uptake	6 ± 0.82%
Cc1ncsc1-c1ccc(C(C)NC(=O)C2CC(O)CN2C(=O)C(NC(=O)CCCCCCCCCCN2CCCC(Nc3ncc(Cl)c(Nc4ccccc4S(=O)(=O)C(C)C)n3)C2)C(C)(C)C)cc1 (stereo not shown)	22Rv1	RNA-seq, item: PDE9A mRNA	concentration not given	reference: DMSO	log2 fold change	-1.85
Cn1ncc2cc(-c3cncc(Cl)c3N3CCC4(CCNC4=O)CC3)ccc21	LS174T	microarray, item: NFE2L2	concentration not given, 4 h, gene set NRF2	reference: untreated cells	fold change in expression	-1.24

Repeated from above:
Compound	cell line	assay	setting	how to read	endpoint	value
Cc1ncsc1-c1ccc(C(C)NC(=O)C2CC(O)CN2C(=O)C(NC(=O)CCCCCCCCCCN2CCCC(Nc3ncc(Cl)c(Nc4ccccc4S(=O)(=O)C(C)C)n3)C2)C(C)(C)C)cc1 (stereo not shown)	22Rv1	RNA-seq, item: PDE9A mRNA	concentration not given	reference: DMSO	log2 fold change	-1.85
